Assay results collected from several papers.
“And” joins repeats or separate records; there may be more than shown. Numbers after ± are the reported error.
Genome polyprotein NS2B-NS3 protease: Genome polyprotein, NS2B-NS3 protease (dengue virus type 2, UniProt P29990)

SMILES | tested on | assay | test system | setting | scale | measurement | value
CCCCCCCCCCCCCCCC(=O)OCC(CSC[C@H](N)C(=O)N[C@@H](CO)C(=O)N[C@@H](CCCCN)C(=O)N[C@@H](CCCCN)C(=O)N[C@@H](CCCCN)C(=O)N[C@@H](CCCCN)C(=O)NCCCCCC(=O)N[C@@H](CCCCN)C(=O)N[C@@H](CC(C)C)C(=O)N[C@H](C(=O)N[C@@H](Cc1ccccc1)C(=O)N[C@@H](Cc1ccccc1)C(=O)N[C@@H](Cc1ccc2ccccc2c1)C(=O)O)C(C)C)OC(=O)CCCCCCCCCCCCCCC (some centres unmarked) | – | – | APP/PS1 transgenic mouse, hippocampus | intrahippocampal, dose not given, unit not given | reference: injected over adjacent side | Iba1 level | 1.23 and 1.82 and 0.625 and 1.83
CN1CCC[C@]1(C)/C=C/S(=O)(=O)NC(=O)Nc1c2c(cc3c1CCC3)CCC2 | – | IL-1β release | human, whole blood ex vivo | oral, 12.5 mg twice daily, day 14, 336 h, multiple ascending dose, together with: LPS and ATP | – | inhibition | 81.8%
COCCOCCOCCNC(=O)Cc1cc(CC(=O)N[C@H]2C[C@H]3C(=O)Nc4cc(OCCOCCOCCOC)cc(n4)C(=O)N4CCC[C@H]4C(=O)Nc4cc(OCCOCCOCCOC)cc(n4)C(=O)N4CCC[C@H]4C(=O)Nc4cc(OCCOCCOCCOC)cc(n4)C(=O)N3C2)cc(CC(=O)N[C@H]2C[C@H]3C(=O)Nc4cc(OCCOCCOCCOC)cc(n4)C(=O)N4CCC[C@H]4C(=O)Nc4cc(OCCOCCOCCOC)cc(n4)C(=O)N4CCC[C@H]4C(=O)Nc4cc(OCCOCCOCCOC)cc(n4)C(=O)N3C2)c1 | – | anion binding, ITC | water/acetonitrile 70 vol% (87.1 mol%) | 298 K, together with: sodium sulfate | – | ΔH | -13 ± 0.1 kJ/mol
NC(=O)c1cccc(NC(=O)c2oncc2-c2ccccc2)c1 | Genome polyprotein NS2B-NS3 protease | reporter gene | HeLa | – | – | EC50 | > 50 µM
O=S(=O)(NCc1ccncc1)c1ccc(C2CCCCC2)cc1 | – | immunohistochemistry | CK-p25 mice female, hippocampus | ip, 0.3 mg/kg daily, 6 wk | reference: vehicle | IBA1 immunoreactivity reduction | ~28%
Cc1ccc(C(NC(=O)c2cc(-c3ccccc3)n(-c3ccccc3)n2)c2ccncc2)cc1 (centres unmarked) | Genome polyprotein NS2B-NS3 protease | reporter gene | HeLa | – | – | EC50 | 6 µM
COc1ccc(C(=O)CCc2cc(C(CCc3ccc(O)cc3OC)c3ccc(O)cc3)c(O)cc2OC)cc1 (racemic) | – | – | human blood | 30 µM, together with: A23187 | – | LTB4 level | 2320 ± 987 pg/mL
COC1CN([C@H]2CC[C@H]([C@@]3(C)Oc4c(Cl)cc(C(=O)NCc5c(SC)cc(C)[nH]c5=O)c(C)c4O3)CC2)C1 | – | RNA-seq, refers to: KHDRBS3 | human, whole blood | dose not given, 24 h | reference: pretreatment baseline | log2 fold change | 4.59
CC(=O)[O-].O.O.O.O.[Co+2].[O-]c1ccc(Br)cc1C=NCCN1CCOCC1 | – | nitric oxide scavenging | – | 120 µM | – | inhibition | 27.6%
Cc1ncsc1-c1ccc(C(C)NC(=O)C2CC(O)CN2C(=O)C(NC(=O)CCCCCCCCCCN2CCCC(Nc3ncc(Cl)c(Nc4ccccc4S(=O)(=O)C(C)C)n3)C2)C(C)(C)C)cc1 (centres unmarked) | 22Rv1 | RNA-seq, refers to: LCMT2 mRNA | – | concentration not given | reference: DMSO | log2 fold change | -1.89
COc1cc(O)ccc1CCC(c1ccc(O)cc1)c1cc2c(c(C)c1O)OC(c1ccc(O)cc1)CC2 (mixture of isomers) | – | refers to: 5-HEPE | human whole blood | 30 µM, together with: Escherichia coli | – | amount | 40 ± 8 pg/mL blood
